# Measurements pooled from the literature.
# Numbered parts are unrelated; each lists some results of a single study.

# Series 1 — method: aptamer microarray, sandwich; molecule type: DNA with 2'F-ANA; sample: in vitro; concentration: 200 nM; together with: Cy3 exosite-II aptamer, 400 nM; reading: higher = stronger binding; strand: GGTTGGTGTGGTTGG
# Target: Prothrombin, mature alpha-thrombin (F2, Homo sapiens, UniProt P00734)
# Setting: whole 15-mer aptamer, many near background
Modification,mean fluorescence intensity [a.u.]
2'F-ANA at 1 2 10 13 14 15,52.3
2'F-ANA at 1 2 3 5 6 7 11 13,71.5
2'F-ANA at 2 3 5 6 8 9 11 15,76.9
2'F-ANA at 1 5 6 11 12 13 14,50
2'F-ANA at 2 5 7 8 12 14 15,50.9
2'F-ANA at 3 4 6 8 12 15,1010
2'F-ANA at 5 9 10 11 13 14 15,55.7
2'F-ANA at 1 3 4 5 8 10 11 15,53
2'F-ANA at 1 2 4 5 7 8 9 11 12 15,88.9
2'F-ANA at 1 4 5 6 10 12 15,50.7
2'F-ANA at 2 6 8 11,355
2'F-ANA at 4 5 9 10 12 13 15,46.8
2'F-ANA at 3 5 10 12 14,50.9
2'F-ANA at 1 4 6 11 14 15,50.4
2'F-ANA at 1 2 3 4 6 8 9 14 15,60.5
2'F-ANA at 2 4 8 9 11 13,201
2'F-ANA at 4 5 7 11 12 13 14,47.5
2'F-ANA at 4 6 9 12 14,99.1
2'F-ANA at 3 4 5 6 9 10 11 12 15,56.1
2'F-ANA at 1 2 3 4 7 8 12,562
2'F-ANA at 3 4 6 9 10 11 13 14 15,153
2'F-ANA at 1 3 5 6 7 10 11 12 15,48.7
2'F-ANA at 1 2 5 6 9 10,45.2
2'F-ANA at 1 2 3 5 14 15,48.1

# Series 2 — method: protein-binding microarray; molecule type: double-stranded DNA, one strand shown; sample: in vitro; concentration: 0.8 µM; setting: whole 60-bp probe, no competitor; reading: higher = stronger binding
# Target: Centromere-binding protein 1, full length, N-terminal tag (CBF1, Saccharomyces cerevisiae, UniProt P17106, residues 1-351)
# Chain of UniProt P17106 (whole entry, looked up): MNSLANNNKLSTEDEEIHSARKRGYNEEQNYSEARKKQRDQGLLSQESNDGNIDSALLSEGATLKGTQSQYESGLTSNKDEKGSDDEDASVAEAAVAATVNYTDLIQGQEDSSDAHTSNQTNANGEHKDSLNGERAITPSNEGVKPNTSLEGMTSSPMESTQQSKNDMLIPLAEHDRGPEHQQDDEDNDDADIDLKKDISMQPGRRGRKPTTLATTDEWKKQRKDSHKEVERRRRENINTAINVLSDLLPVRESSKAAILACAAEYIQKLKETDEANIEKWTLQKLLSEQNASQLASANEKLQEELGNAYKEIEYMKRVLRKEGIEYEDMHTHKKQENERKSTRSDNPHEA
Strand,fluorescence intensity [a.u.]
CTAAAATCCCGTAAACTCATGATGTGAATTTTGTTCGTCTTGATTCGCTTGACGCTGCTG,560
GAATATATATATAAGCACGGGCGCATGGGAGATTAGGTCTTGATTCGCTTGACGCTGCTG,790
CTATAATATCTCGCCATCACCAGGTTGACGGTATTCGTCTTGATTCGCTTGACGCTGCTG,522
CCTAACTACTATAACGTGATGGTATAGCTTCGTACAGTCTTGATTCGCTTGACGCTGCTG,1070
GAAAAGGGCCTTCGTCATCACTAACTGGTCCAATAGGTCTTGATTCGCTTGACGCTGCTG,531
CTATTCCTTTTACCTCGTGAAAGGACTATATATTTCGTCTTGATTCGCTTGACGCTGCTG,581
CTATTATGGCGCTAACACGTTAAACATTTGTTATTCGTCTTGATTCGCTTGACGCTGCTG,535
CTATAGATAAATTATCATCACCTTTTTTACACTTTCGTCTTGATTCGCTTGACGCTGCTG,543
CTATATATATGCATACACGTTATTGAAGTTATATTCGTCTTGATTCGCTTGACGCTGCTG,617
CTATGGTATTCTGACAACGTGTTGTCATACCTGTTCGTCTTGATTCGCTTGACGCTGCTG,675
CTACATTCAATTCCTCACCTGGTGCGCACTTCCTTCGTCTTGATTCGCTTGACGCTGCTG,558
GAAAGCCATCAATGTCACCCATCTTTTGTGGATTAGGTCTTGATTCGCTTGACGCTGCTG,484
GAAGGTTTATAGGTTCACATGATATGAGTATAATAGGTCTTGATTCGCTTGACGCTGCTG,1210
GAAACCTAATAAAATCAGCAGACGCAAGAAGGATAGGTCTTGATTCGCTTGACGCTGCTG,575
CTAGACTAATCGGCGCATGTTTTACACCTCTTTTTCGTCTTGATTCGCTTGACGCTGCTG,517
CTAGCTTTAAGGGTCAAGGTGGTGGAAAACTTGTTCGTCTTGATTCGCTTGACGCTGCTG,542
CTAAACTGCTGTAGCCATGTGGGATGATCATGCTTCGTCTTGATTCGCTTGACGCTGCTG,607
GAAAAAATAAAACCTCATATGATTTACTTTATTTAGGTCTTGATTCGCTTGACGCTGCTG,523

# Series 3 — method: protein binding microarray; molecule type: double-stranded DNA, one strand shown; sample: in vitro; concentration: not given; relative to: not given; reading: higher = stronger binding
# Target: Histone acetyltransferase KAT6A, both winged helices, GST fusion (KAT6A, Homo sapiens, UniProt Q92794, residues 1-181)
# Setting: 8-mer, flanks averaged, mean of 2 arrays, mostly near background
# Residues (chain): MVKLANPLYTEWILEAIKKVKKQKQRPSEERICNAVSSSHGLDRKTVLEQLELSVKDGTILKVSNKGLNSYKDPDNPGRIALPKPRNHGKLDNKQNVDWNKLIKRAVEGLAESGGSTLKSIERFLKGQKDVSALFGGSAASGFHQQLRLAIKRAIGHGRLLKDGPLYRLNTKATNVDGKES
Strand,E-score
ACGCACAT,0.0765
ATTCCCTC,-0.189
CCGTTGCA,0.177
GGGGACCC,-0.0246
AAGAAGCG,0.127
GTCATAAA,-0.048
CCAACACG,0.0261
CGGCCTAG,0.0645
GGGTAATA,-0.0779
ATGGCGCC,0.219
AAAGTTGT,0.00052
GTACAGAC,-0.00549
CCCTTTCA,-0.0211
CAGAAAGC,-0.0337
GATGGAAC,-0.148
GCATTGGA,0.0701
AAATTCTG,-0.0132
ATGATAAC,-0.116
ACCGGGAA,0.224
CTGGTGTC,-0.184
AATACCGA,0.0807
AGCGCGTA,0.33
GGAAAACC,0.085
CTTCCAAA,-0.187
ATATTTAA,-0.0525

# Series 4 — method: RNA Bind-n-Seq; molecule type: RNA; sample: in vitro; concentration: 365 nM; relative to: no-protein control; reading: higher = stronger binding
# Target: RNA binding protein fox-1 homolog 2, RRM domain, GST-SBP tag (RBFOX2, Homo sapiens, UniProt O43251-10, residues 100-194)
# Setting: natural RNA segment, single round, ends assumed
# Target sequence (chain): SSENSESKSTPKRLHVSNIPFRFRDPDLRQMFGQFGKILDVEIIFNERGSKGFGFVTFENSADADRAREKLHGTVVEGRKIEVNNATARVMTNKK
Strand,RBNS enrichment (R)
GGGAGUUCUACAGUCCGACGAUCAGGCUUGCAGCAAUAUAGCCUGGACCCAGAAAAGGGAAAACGAUAAGGAAAUUCUGUCUGGUAGGUGCAAAGGGCUUCAUGGAUUUGGAAACCUGGAGGCAGGAACAUAGUGGAAUUCUCGGGUGCCAA,0.542
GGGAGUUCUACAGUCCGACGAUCGUAGCUGCAGAGGGGGGAGGCCAAGGGUUUGGUCUAAGCUGUGCCCUGCCACCUGGCAGGAGGCCCACUCACUGCCCAAGUCAUGGCAACAGGCUGGAGCAGCCCAGGAGUGGAAUUCUCGGGUGCCAA,0.288
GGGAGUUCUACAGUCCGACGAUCGUGCGUCGCCAGGACUUCUCUGGGCUGUGUUUAAACGGCCCGCAUCUUAAUUUUUCUCCCUUCUUUCUUUUUUUGGCUUUGGGAAAAGCAUCAUUUUACCAAACAUACCGUGGAAUUCUCGGGUGCCAA,1.28
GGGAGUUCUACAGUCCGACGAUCCAUGUUUUUCUCACUUAGGUCUCACAAAAGUAUGAUUUUUCUCAAAAGUCCUGUAUUUAUGUAUUUUUUGGAUUCAGUGUGAGGCAUUGAAUUAAAGAUACCGAUUAAAGUGGAAUUCUCGGGUGCCAA,0.541
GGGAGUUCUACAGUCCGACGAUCCUUUAGACCCUGACACGUGGAUGUUCUUCUGCAGUCUUGUCUGCUAAGUUUUAAAUAAAGUCAUGAUCAGUGUGCAUUUGUGAUUACAUGUGUACUCAUUCUUUUCCCAAUGGAAUUCUCGGGUGCCAA,1.77
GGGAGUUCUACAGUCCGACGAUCCUGUUGGUAUAGCAUUUUCUAAGGAAACUACUCACUCAGCGCCUACCCUUUGUUAGAAGUGUUGACGCUCCAAGCACGCGUGUGAAGCACCAUGUAUCUUGGCCGGUUUCUGGAAUUCUCGGGUGCCAA,2.88
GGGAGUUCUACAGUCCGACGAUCGUGCCAUUUCAUGUCCUGUGUCAGUUUAUGUUUUGGUCCACUUUUCCAGUAUUUUAGUGGACCCUGAAAUGUGUGUGAUGUGACAUUUGUUAUUUUCAUUAGCAAAAAAAUGGAAUUCUCGGGUGCCAA,0.897
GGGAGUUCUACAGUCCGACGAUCCCCAUCUCGCUCAGCACAGGGUUUCUGUGGGAUGAGUUUGAUUCUCUUGUUCUCACUGCUGAACUGGUGUUUAAAAUUCUUCGCAGGUCAGAAGUUUGGGAACUCAAAAGUGGAAUUCUCGGGUGCCAA,0.367
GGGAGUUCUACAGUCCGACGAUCCUUUGCAUGUUGUGUGUGAUAUACCUAGCCAGAAAUAGAUGUGGCUUUUGUUUUGGGGGCAGAUUACUUUCAAAAGCAAAUACAAUUCACUUGAAUUUGACAAACUGAAGUGGAAUUCUCGGGUGCCAA,5.87
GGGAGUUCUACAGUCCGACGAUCAGCCUGCACAUCUCUCUCUUUGGCCUGCUGGAGGGUACUCUGAUUCUCUGGCUGGCCGCCUGCGUCCCAGAGCACCAGAGUCCCUUCCCGACAGGCUAGGGUUAGGCAAUUGGAAUUCUCGGGUGCCAA,0.298
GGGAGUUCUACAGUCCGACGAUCGGCUCCAGCCUAUGCCGUCCUGAAGAGCAUUAUCCAGGCCGGAUGCAGAGUGGCGAUAUAUUUAUCAGAAAGAUUAUAAAGUGUGUCCAGUUUUGCCUGUCUAUAAAAGAUGGAAUUCUCGGGUGCCAA,0.474
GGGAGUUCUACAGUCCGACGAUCUAAUCCUUGAAUAUUAGUAAGGUCCAGGAAAGUUACCAGCUGAUGGCGGAGUGAAGCUCAGCUCGGUGGUCGCUCAGAGCAGCCAGUGGUCCCCUCUGCUCUGUUCCCUCUGGAAUUCUCGGGUGCCAA,0.37

# Series 5 — method: universal PBM; molecule type: double-stranded DNA, one strand shown; sample: in vitro; concentration: 600 nM; reading: higher = stronger binding
# Target: Sal-like protein 4, full length isoform A (SALL4, Homo sapiens, UniProt Q9UJQ4, residues 1-1053)
# Chain of UniProt Q9UJQ4 (whole entry, looked up): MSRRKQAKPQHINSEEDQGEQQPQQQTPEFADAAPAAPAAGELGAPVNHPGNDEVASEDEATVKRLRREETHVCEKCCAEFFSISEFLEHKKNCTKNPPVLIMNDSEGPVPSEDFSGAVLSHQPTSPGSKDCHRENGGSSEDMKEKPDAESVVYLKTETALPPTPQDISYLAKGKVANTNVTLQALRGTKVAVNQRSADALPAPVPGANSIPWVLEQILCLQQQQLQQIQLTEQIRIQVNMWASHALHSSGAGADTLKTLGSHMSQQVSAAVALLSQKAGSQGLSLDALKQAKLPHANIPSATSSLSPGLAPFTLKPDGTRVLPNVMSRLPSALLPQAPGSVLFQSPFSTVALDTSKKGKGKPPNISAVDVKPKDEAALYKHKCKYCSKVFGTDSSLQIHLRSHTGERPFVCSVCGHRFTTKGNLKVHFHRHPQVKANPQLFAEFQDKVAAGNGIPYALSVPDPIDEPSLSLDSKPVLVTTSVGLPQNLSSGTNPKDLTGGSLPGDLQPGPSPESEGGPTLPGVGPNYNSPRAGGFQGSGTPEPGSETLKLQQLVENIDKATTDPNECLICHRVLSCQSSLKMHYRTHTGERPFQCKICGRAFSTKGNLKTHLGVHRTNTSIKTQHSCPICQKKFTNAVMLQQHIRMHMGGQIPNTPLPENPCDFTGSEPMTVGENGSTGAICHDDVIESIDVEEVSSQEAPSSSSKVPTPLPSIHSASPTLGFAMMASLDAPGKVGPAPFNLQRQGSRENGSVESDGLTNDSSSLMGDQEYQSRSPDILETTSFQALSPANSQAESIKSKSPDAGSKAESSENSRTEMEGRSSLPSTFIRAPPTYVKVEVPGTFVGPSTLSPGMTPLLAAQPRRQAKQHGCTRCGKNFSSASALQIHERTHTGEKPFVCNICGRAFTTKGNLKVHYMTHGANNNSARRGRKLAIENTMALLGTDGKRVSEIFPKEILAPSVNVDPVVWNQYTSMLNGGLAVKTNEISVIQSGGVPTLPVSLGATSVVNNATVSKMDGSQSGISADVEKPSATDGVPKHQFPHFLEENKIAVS
# Setting: 8-mer, flanks averaged, mean of replicates
Strand,E-score
TCTGCAGA,-0.0372
CCTGCGCA,-0.208
GGACGGCC,-0.342
CTATTTGC,0.205
CATTCTAG,0.14
ATGAGTGG,-0.0694
CCGGGCTA,-0.379
CAACAAAG,0.0227
CTTCTCAA,0.103
AGATGAAA,0.186
CCCGTTAA,-0.106
GCCACGGA,-0.236
GACCTACC,-0.249
CATCGTGG,-0.255
CGCCGAAC,-0.0565
ACTCCCAT,0.0834
ACAACGCA,-0.00034
ACTCCCAC,-0.212
GGCGTCAA,-0.15
CTTTACCC,0.018
CTAGGAAC,-0.0576
ACAGGGAT,-0.116
CCCACAGA,-0.131
CCGCCCTC,-0.236
ATATTAAA,0.439

# Some of these lines once more (series 3):
Strand,E-score
CCGTTGCA,0.177
GGGGACCC,-0.0246
AAGAAGCG,0.127
GTCATAAA,-0.048
CCAACACG,0.0261
CGGCCTAG,0.0645
